Measured values gathered from unrelated publications.
Compare with care: the assays were run in different laboratories. ± marks the error that the study gave.

The MIC of `OB(O)c1cnn(-c2cc(Cl)ncn2)c1` is reported as 2050 µg/mL (Escherichia coli; bacterial growth; CTX-M-14 ESBL clinical isolate; without cefotaxime).
For `CC[C@H](C)[C@H](NC(=O)[C@@H](CCCNC(=N)N)NC(=O)[C@H](CCCNC(=N)N)NC(=O)[C@H](CO)NC(=O)[C@H](Cc1c[nH]c2ccccc12)NC(=O)[C@H](CCCNC(=N)N)NC(=O)[C@@H]1CCCN1C(=O)[C@H](CCCNC(=N)N)NC(=O)[C@@H]1CCCN1C(=O)[C@H](CC(C)C)NC(=O)[C@H](Cc1ccc(O)cc1)NC(=O)[C@@H]1CCCN1C(=O)[C@@H]1CCCN1C(=O)[C@H](CCCCN)NC(=O)[C@H](CC(=O)O)NC(=O)[C@@H](N)C(C)C)C(=O)N[C@@H](Cc1ccc(O)cc1)C(=O)N[C@@H](CC(N)=O)C(=O)N[C@H](CCCNC(=N)N)C(N)=O`, the MIC was 8 µg/mL (Escherichia coli; broth microdilution; BW25113; 18 h, 37 °C, 25% MHB2).
For `O=c1n(CCNCCOS(=O)(=O)c2ccccc2)c(=O)n(S(=O)(=O)c2ccccc2)c(=O)n1S(=O)(=O)c1ccccc1`, the MIC was 4 µg/mL (Escherichia coli; microbial growth, broth dilution).
For `CC[C@H](C)[C@H](NC(=O)[C@@H](NC(=O)[C@H](CCCCN)NC(=O)[C@H](CCC(N)=O)NC(=O)[C@@H](NC(=O)[C@H](Cc1c[nH]c2ccccc12)NC(=O)[C@H](CCCCN)NC(=O)[C@H](CCCCN)NC(=O)[C@H](CC(C)C)NC(=O)[C@H](CCCNC(=N)N)NC(=O)[C@H](Cc1ccccc1)NC(=O)[C@@H](N)C(C)C)[C@@H](C)CC)C(C)C)C(N)=O`, the MIC was 64 µM (Escherichia coli; 24 h, 37 °C, Mueller-Hinton broth, MgCl2 1 mM).
With `CCCC[C@H](NC(=O)[C@H](Cc1ccc(O)cc1)NC(=O)[C@@H]1CCCN1C(=O)[C@@H]1CCCN1C(=O)[C@H](CCCCN)NC(=O)[C@H](CC(=O)O)NC(=O)[C@@H](N)C(C)C)C(=O)N1CCC[C@H]1C(=O)N[C@@H](CCCNC(=N)N)C(=O)N1CCC[C@H]1C(=O)N[C@@H](CCCNC(=N)N)C(=O)N1CCC[C@H]1C(=O)N1CCC[C@H]1C(=O)N[C@@H](CCCNC(=N)N)C(=O)N[C@H](CCCNC(=N)N)C(=O)N[C@H](C(=O)N[C@@H](Cc1ccc(O)cc1)C(=O)N[C@@H](CC(N)=O)C(=O)N[C@H](CCCNC(=N)N)C(N)=O)[C@@H](C)CC` the MIC was 8 µg/mL (Escherichia coli; broth microdilution; MC4100; 18 h, 37 °C, 25% MHB2).
`CC(C)C[C@@H](NC(=O)[C@H](NC(=O)[C@@H](CCCCN)NC(=O)[C@@H](CCCCN)NC(=O)[C@@H](CC(C)C)NC(=O)[C@@H](Cc1c[nH]c2ccccc12)NC(=O)[C@@H](CCCCN)NC(=O)[C@@H](CC(C)C)NC(=O)[C@@H](CC(C)C)NC(=O)[C@@H](CCCCN)NC(=O)[C@@H](CCCCN)NC(=O)[C@H](N)C(C)C)C(C)C)C(N)=O` has an MIC of 8 µM (Escherichia coli; 24 h, 37 °C, Mueller-Hinton broth, human serum 10%).
The MIC of `CC[C@H](C)[C@H](NC(=O)[C@@H](CCCNC(=N)N)NC(=O)[C@H](CCCNC(=N)N)NC(=O)[C@@H]1CCCN1C(=O)[C@@H]1CCCN1C(=O)[C@H](CCCNC(=N)N)NC(=O)[C@@H]1CCCN1C(=O)[C@H](CCCNC(=N)N)NC(=O)[C@@H]1CCCN1C(=O)[C@H](CC(C)C)NC(=O)[C@H](Cc1ccc(O)cc1)NC(=O)[C@@H]1CCCN1C(=O)[C@@H]1CCCN1C(=O)[C@H](CCCCN)NC(=O)[C@H](CCCNC(=N)N)NC(=O)[C@@H](N)C(C)C)C(=O)N[C@@H](Cc1ccc(O)cc1)C(=O)N[C@@H](CC(N)=O)C(=O)N[C@H](CCCNC(=N)N)C(N)=O` is reported as 8 µg/mL (Escherichia coli; broth microdilution; ATCC 25922; 18 h, 37 °C, 25% MHB2).
The MIC of `CC[C@H](C)[C@@H]1NC(=O)CNC(=O)[C@H](CCCCN)NC(=O)[C@H](Cc2ccc(O)cc2)NC(=O)[C@@H]2CSSC[C@H](NC1=O)C(=O)N[C@@H](Cc1ccc(O)cc1)C(=O)N[C@@H](CCCCN)C(=O)N[C@@H](CCCCN)C(=O)N[C@H](C(=O)N[C@@H](CCCCN)C(N)=O)CSSC[C@H](NC(=O)[C@H](Cc1c[nH]c3ccccc13)NC(=O)[C@@H](N)CCCCN)C(=O)N[C@@H](Cc1ccccc1)C(=O)N[C@@H](CCCCN)C(=O)N[C@@H](C(C)C)C(=O)N2` is reported as 1.8 µM (Escherichia coli; broth dilution; K12 BW25113; 18 h, 37 °C).
The MIC of `CC[C@H](C)[C@H](NC(=O)[C@@H](CCCNC(=N)N)NC(=O)[C@H](CCCNC(=N)N)NC(=O)[C@@H]1CCCN1C(=O)[C@@H]1CCCN1C(=O)[C@H](Cc1c[nH]cn1)NC(=O)[C@@H]1CCCN1C(=O)[C@H](CCCNC(=N)N)NC(=O)[C@@H]1CCCN1C(=O)[C@H](CC(C)C)NC(=O)[C@H](Cc1ccc(O)cc1)NC(=O)[C@@H]1CCCN1C(=O)[C@@H]1CCCN1C(=O)[C@H](CCCCN)NC(=O)[C@H](CC(=O)O)NC(=O)[C@@H](N)C(C)C)C(=O)N[C@@H](Cc1ccc(O)cc1)C(=O)N[C@@H](CC(N)=O)C(=O)N[C@H](CCCNC(=N)N)C(N)=O` is reported as 32 µg/mL (Escherichia coli; broth microdilution; ATCC 25922; 18 h, 37 °C, 25% MHB2).
`O=C1NC2(CC2)COc2ncc(F)cc2[C@H]2COCCN2c2ccn3ncc1c3n2` — result for “organ-to-body weight ratio”: 2.79 ± 0.128% (Sprague-Dawley rat, male, liver; oral, 10 mg/kg/day, 4 weeks dosing, end of recovery).
The MIC of `C#CCO/N=C(\C(=O)N[C@@H]1C(=O)N(OS(=O)(=O)O)C1(C)C)c1csc(N)n1` is reported as 4 µg/mL (Escherichia coli; agar dilution; CDC 1001728, NDM-1).
`CC(C)C[C@H](NC(=O)[C@@H](NC(=O)[C@H](CCCCN)NC(=O)[C@H](CCCCN)NC(=O)[C@H](CC(C)C)NC(=O)[C@H](Cc1c[nH]c2ccccc12)NC(=O)[C@H](CCCCN)NC(=O)[C@H](Cc1c[nH]c2ccccc12)NC(=O)[C@H](CC(C)C)NC(=O)[C@H](CCCCN)NC(=O)[C@H](CCCCN)NC(=O)[C@@H](N)C(C)C)C(C)C)C(N)=O` gave an MIC of 32 µM (Escherichia coli; 24 h, 37 °C, Mueller-Hinton broth, MgCl2 1 mM).
With `CCn1c(-c2ccc(Br)cc2)c(-c2ccc(Br)cc2)n(CC)c1=[Se]` the MIC was > 40 µM (Escherichia coli; broth microdilution; carbapenem-resistant BAA-2140; 24 h).
`CN[C@@H]1[C@H](O)[C@H](NC)[C@H]2O[C@]3(O)[C@H](O[C@@H]2[C@H]1O)O[C@H](C)C[C@H]3NC(=O)Cc1ccc(Cl)cn1` gave an MIC of > 200 µg/mL (Escherichia coli; microbial growth, broth dilution; K12).
For `CC[C@H](C)[C@H](NC(=O)[C@H](CCCCN)NC(=O)[C@H](CCCCN)NC(=O)[C@H](Cc1ccccc1)NC(=O)[C@H](Cc1ccccc1)NC(=O)[C@H](CCCCN)NC(=O)[C@H](CCCCN)NC(=O)[C@H](Cc1ccccc1)NC(=O)[C@H](CCCNC(=N)N)NC(=O)[C@@H](N)CCCCN)C(=O)N[C@@H](CCCCN)C(=O)N[C@@H](CCCCN)C(=O)N[C@@H](CO)C(=O)N[C@H](C(=O)N[C@@H](CCCCN)C(=O)N[C@@H](CCCCN)C(=O)N[C@@H](CCCNC(=N)N)C(=O)N[C@H](C(=O)N[C@@H](CCCCN)C(=O)N[C@@H](CCCCN)C(=O)N[C@@H](CC(C)C)C(=O)N[C@@H](Cc1ccccc1)C(=O)N[C@@H](CCCCN)C(=O)N[C@@H](CCCCN)C(=O)N1CCC[C@H]1C(=O)N[C@@H](CCCNC(=N)N)C(=O)N[C@H](C(=O)N[C@H](C(=O)N1CCC[C@H]1C(=O)N[C@H](C(=O)N[C@@H](CO)C(=O)N[C@H](C(=O)N1CCC[C@H]1C(=O)N[C@@H](Cc1ccccc1)C(=O)O)[C@@H](C)CC)[C@@H](C)CC)[C@@H](C)CC)C(C)C)C(C)C)C(C)C`, the MIC was 4 µg/mL (Escherichia coli; broth microdilution; E24 clinical isolate; 20 h).
The MIC of `CCCCCCCC(=O)N[C@@H](CCN)C(=O)N[C@H](C(=O)N[C@@H](CCN)C(=O)N[C@H]1CCNC(=O)[C@H]([C@@H](C)O)NC(=O)[C@H](CCN)NC(=O)[C@H](CCN)NC(=O)[C@H](CC(C)C)NC(=O)[C@@H](Cc2ccc(C(F)(F)F)cc2)NC(=O)[C@H](CCN)NC1=O)[C@@H](C)O` is reported as 1 to 2 µg/mL (Escherichia coli; broth microdilution; mcr-1, colistin-resistant).
`CCCCCCCCCCCCCC(=O)N[C@H](CCN)C(=O)N[C@@H]1C(=O)N[C@@H](CCN)C(=O)N[C@@H](CC(C)C)C(=O)N[C@@H](CCN)C(=O)N[C@H](Cc2ccccc2)C(=O)N[C@@H](CC(C)C)C(=O)N[C@@H](CCN)C(=O)N[C@H](CCN)C(=O)N[C@@H](C(C)C)C(=O)N[C@@H](CC(=O)O)C(=O)O[C@@H]1C` — result for MIC: “no effect” (Escherichia coli; ATCC 25922; together with: purified DNA 0.1 mg/mL).
`CO[C@@H](C(N)=O)[C@H](NC(=O)c1ccc(NC(=O)[C@@H](N)Cc2ccc(O)cc2)cc1)C(=O)Nc1ccc(C(=O)Nc2ccc(C(=O)Nc3ccc(C(=O)O)cc3)c(O)c2OC(C)C)cc1` gave an MIC of > 8 µg/mL (Escherichia coli; pentapeptide repeat protein clone; 16 h, 37 °C).
For `CC[C@H](C)[C@H](NC(=O)[C@@H](CCCNC(=N)N)NC(=O)[C@H](CCCNC(=N)N)NC(=O)[C@H](C)NC(=O)[C@H](Cc1c[nH]c2ccccc12)NC(=O)[C@H](CCCNC(=N)N)NC(=O)[C@@H]1CCCN1C(=O)[C@H](CCCNC(=N)N)NC(=O)[C@@H]1CCCN1C(=O)[C@H](CC(C)C)NC(=O)[C@H](Cc1ccc(O)cc1)NC(=O)[C@@H]1CCCN1C(=O)[C@@H]1CCCN1C(=O)[C@H](CCCCN)NC(=O)[C@H](CC(=O)O)NC(=O)[C@@H](N)C(C)C)C(=O)N[C@@H](Cc1ccc(O)cc1)C(=O)N[C@@H](CC(N)=O)C(=O)N[C@H](CCCNC(=N)N)C(N)=O`, the MIC was 16 µg/mL (Escherichia coli; broth microdilution; BW25113; 18 h, 37 °C, 25% MHB2).
`CC[C@H](C)[C@H](NC(=O)[C@H](CCCCN)NC(=O)[C@H](CCC(N)=O)NC(=O)[C@H](C)NC(=O)[C@H](Cc1ccc(O)cc1)NC(=O)[C@H](CCC(=O)O)NC(=O)[C@H](CCCCN)NC(=O)[C@H](C)NC(=O)[C@H](CC(C)C)NC(=O)[C@H](CCCNC(=N)N)NC(=O)[C@H](CC(C)C)NC(=O)CNC(=O)[C@H](CCCCN)NC(=O)[C@H](C)NC(=O)[C@H](CCCNC(=N)N)NC(=O)[C@H](CC(C)C)NC(=O)[C@H](CCCCN)NC(=O)[C@H](CCC(N)=O)NC(=O)[C@H](C)NC(=O)[C@H](CC(C)C)NC(=O)[C@H](CCCCN)NC(=O)[C@H](CO)NC(=O)[C@H](CCCCN)NC(=O)[C@@H](N)Cc1c[nH]c2ccccc12)C(=O)N[C@@H](CC(C)C)C(=O)N[C@@H](CC(N)=O)C(=O)O` gave an MIC of 4.39 µg/mL (Escherichia coli; broth microdilution; K88, Mueller-Hinton broth; 37 °C).
With `O=C(NCc1ccccc1)C(CCc1ccccc1)N(CCc1c[nH]cn1)C(=O)c1ccccc1` (racemic) the MIC was 128 µM (Escherichia coli; TolC).
